Published values pooled from the literature.
Compare with care: the assays were run in different laboratories. ± gives the spread as reported.

CC(C)C[C@H](NC(=O)[C@@H](CCCCNC(=O)[C@@H](Cc1ccccc1)NC(=O)CCCCCCCNC(=O)CN1CCN(CC(=O)O)CCN(CC(=O)O)CCN(CC(=O)O)CC1)NC(=O)[C@H](Cc1ccc(O)cc1)NC(=O)[C@H](CO)NC(=O)[C@H](Cc1c[nH]c2ccccc12)NC(=O)[C@H](Cc1c[nH]cn1)NC(=O)[C@@H]1CCC(=O)N1)C(=O)N[C@@H](CCCNC(=N)N)C(=O)N1CCC[C@H]1C(=O)NCC(N)=O [indium-111 labelled]: “intact radiopeptide in urine” ~60% (radio-HPLC; nude mice, DU-145 tumour-bearing, urine; intravenous, 18.5 MBq, 1 h; reference: radioactivity).
For CCCCN1C(=O)c2cccc3c(NCCCCCCCCN4CCOCC4)ccc(c23)C1=O, “molar extinction coefficient” read 12200 M⁻¹ cm⁻¹ (ethylene glycol).
For C(=N\Nc1nnc(N/N=C/c2ccccc2)c2ccccc12)/c1ccccc1, the haemolysis was 7.3% (haemolysis; human; 1 mM, 45 min).
CN([O-])C(=O)CN1CCNCCN(CC(=O)N(C)[O-])CC1.[89Zr+4] gave a tracer uptake of 0.18 %ID/g (mouse, liver; intravenous, 24 h).
For CCCCN1C(=O)c2cccc3c(NCCCCCCCCCCN4CCOCC4)ccc(c23)C1=O, “molar extinction coefficient” read 14100 M⁻¹ cm⁻¹ (chloroform).
With O=C1NC2(CC2)COc2ncc(F)cc2[C@H]2COCCN2c2ccn3ncc1c3n2 the PCE/(PCE+NCE) ratio was 0.396 ± 0.053 (bone marrow micronucleus test; NIH mice, male; oral, 60 mg/kg/day, 3 days).
Under “molar extinction coefficient”, CCCCN1C(=O)c2cccc3c(NCCN4CCOCC4)ccc(c23)C1=O is recorded as 6390 M⁻¹ cm⁻¹ (DCM).
CN1CCCNC(=O)c2cccc(c2)C(=O)NCCCN(C)CCCNc2cccc3c2C(=O)c2cccc(c2C3=O)NCCC1 has an AST of 153 ± 16.2 U/L (nude mice, serum; dose not given, 10 days).
With C/C(N)=N/C(=N\S(=O)(=O)c1ccc(C(F)(F)F)cc1)N1C[C@H](c2ccccc2)C(c2ccc(Cl)cc2)=N1 the half-life was 6.5 h (C57BL/6 mouse, brain; intravenous, 10 mg/kg).
For O=C([O-])CN1CCN(CC(=O)[O-])CCN(C(CO)C(O)CO)CCN(CC(=O)[O-])CC1.[Dy+3] (centres unmarked), “lanthanide tissue concentration” read 0.072 ± 0.1 nmol/g (cynomolgus monkey, muscle; dose not given, day 58, PK group).
The tissue uptake of [123I]c1ccc2nc(-c3ccc(-n4ccnn4)nc3)cn2c1 is reported as 0.075 ± 0.024 %ID/g (Wistar rat, male, red marrow; intravenous, 4 MBq, 6 h).
For CC[C@H](C)[C@@H]1NC(=O)[C@H](Cc2ccc(O)cc2)NC(=O)CCCSC[C@@H](C(=O)N(CC(=O)N[C@@H](CC(C)C)C(=O)NCC(N)=O)Cc2ccc(F)cc2)NC(=O)[C@H](CC(N)=O)NC(=O)[C@H](CCC(N)=O)NC1=O, the AUC(0-t) was 0.135 ng·h/mL (healthy human, plasma; intranasal, 400 µg every 3 h, after last dose).
COCC1CN(C2CCN(c3cc(OC)c(Nc4ncc(Br)c(Nc5ccc6c(c5P(C)(C)=O)OCCO6)n4)cc3C)CC2)C1 has an adverse events of 57.1% (first-in-human trial; human; oral, 60 mg once daily; any treatment-related).
For CCC1=[N+]2N=C(/C=C/c3ccccc3)C(=O)O[B-]2(c2ccccc2)Oc2cc(N(CC)CC)ccc21 (centres unmarked), “molar absorption coefficient” read 58000 M⁻¹ cm⁻¹ (toluene).
Cl.NCc1ccc2c(c1)CN(C1CCC(=O)NC1=O)C2=O (centres unmarked) has a remaining compound of < 1% (male Beagle dog, whole blood; 3 h).
With O=C(Nc1cnccc1-c1ccc([18F])nc1)c1ccnc(NC(=O)C2CC2)c1 the SUV was 0.071 (PET imaging; FVB/NJ mice, both sexes, brain; intravenous, 120 min post-injection, P-gp inhibited, with: tariquidar 15 mg/kg iv, 2 h before).
For CCCC[C@H](NC(=O)COCCOCCNC(=O)CN1CCN(CC(=O)O)CCN(CC(=O)O)CC1)C(=O)N[C@H]1CC(=O)NCCCC[C@@H](C(N)=O)NC(=O)[C@H](Cc2c[nH]c3ccccc23)NC(=O)[C@H](CCCNC(=N)N)NC(=O)[C@@H](Cc2ccccc2)NC(=O)[C@H](Cc2c[nH]cn2)NC1=O [fluorine-18 labelled], the intact fraction was ~90% (HPLC; C57 mice, urine; 1 h).
For C=C(NC(=O)c1csc(-c2nc3c(cc2O)-c2nc(cs2)C(=O)NC(C(C)O)C(=O)NC(=C(C)OC)c2nc(cs2)C(=O)NC2c4nc(cs4)C(=O)NC(COC(=O)c4c5c6c(cccc6n4O)COC(=O)C(OC4CC(C)(O)C(N(C)C)C(C)O4)C2OC5)c2nc-3cs2)n1)C(N)=O (centres unmarked), the AUC(0-t) was 51.6 ng·h/mL (ICR mice, Streptococcus pneumoniae ATCC 49169 infected, immunocompromised, blood; intravenous, 2 mg/kg/day once daily).
Under “molar extinction coefficient”, CCCCN1C(=O)c2cccc3c(NCCCCCN4CCOCC4)ccc(c23)C1=O is recorded as 8680 M⁻¹ cm⁻¹ (DMF).
With OC1(C(F)(F)F)CCN(c2nc(Nc3ccnc(C(F)(F)F)c3)nc(-c3cccc(C(F)(F)F)n3)n2)C1 (centres unmarked) the MRT(0-inf) was 25.7 ± 5.35 h (Sprague-Dawley rat, both sexes, plasma; oral gavage, 5 mg/kg, day 14).
With CCCC[C@H](OC(C)=O)c1ccccc1C(=O)O the clearance was 20.5 ± 2.13 mL/min/kg (beagle dogs, both sexes, whole blood; intravenous, 0.5 mg/kg single dose).
With O=C(NS(=O)(=O)c1cccs1)c1cc2ccccc2n1Cc1ccc(Br)c2ccccc12 the AUC(0-inf) was 11300 ng·h/mL (Sprague-Dawley rat, male, plasma; oral, 20 mg/kg).
CC(=O)N1CCC[C@H]1C(=O)N[C@@H](CC(C)C)C(=O)N[C@@H](Cc1cncn1CCCCCCCCc1ccccc1)C(=O)N[C@@H](CO)C(=O)N[C@H](C(N)=O)[C@@H](C)OP(=O)(O)O gave a recovery of 69.4% (Caco-2 monolayer; 10 µM, 2 h).
CSCC[C@H](N)C(=O)N[C@@H](CO)C(=O)N[C@H](C(=O)N[C@@H](C)C(=O)NCC(=O)N[C@@H](CC(C)C)C(=O)N[C@@H](CCCCN)C(=O)N[C@@H](CCCCN)C(=O)N[C@@H](CCC(N)=O)C(=O)N[C@@H](Cc1c[nH]c2ccccc12)C(=O)N[C@@H](Cc1c[nH]cn1)C(=O)N[C@@H](CCCCN)C(=O)N[C@@H](C)C(=O)N[C@H](C(=O)N[C@@H](CCC(N)=O)C(=O)N[C@@H](CCCCN)C(=O)N[C@H](C(=O)N[C@@H](CO)C(=O)N[C@@H](CCC(=O)O)C(=O)N[C@@H](CCCCN)C(=O)N[C@H](C(=O)NCC(=O)NCC(=O)N[C@@H](C)C(N)=O)C(C)C)C(C)C)[C@@H](C)O)C(C)C gave a fractional helicity of 3.4% (circular dichroism; phosphate buffer; pH 7.4).
With CCc1occc(=O)c1[O-].[Cl-].[W+4].c1cc[cH-]c1.c1cc[cH-]c1 the oxidation potential was 575 mV (cyclic voltammetry; reference: Ag/AgCl).
CCC(C(=O)Nc1ccc(C(N)=O)c(F)c1)n1cc(OC)c(-c2cc(Cl)ccc2-n2cc(C(F)(F)F)nn2)cc1=O (centres unmarked): “drug-related adverse events” 7.1% (healthy male humans; 50 mg).
The AUC(0-t) of CN1CCC[C@]1(C)/C=C/S(=O)(=O)NC(=O)Nc1c2c(cc3c1CCC3)CC=C2 is reported as 707000 ng·h/mL (human, plasma; oral, 50 mg twice daily of parent drug, day 14, metabolite of dosed drug).
CCc1cnc(NC(=O)c2cc(S(=O)(=O)N3CCOCC3)ccc2N(C)C2CCCC2)s1 gave a CPK of 436 IU/L (mouse, serum; 10 mg/kg, 3 doses).
CCCCN1C(=O)c2cccc3c(NCCCN4CCOCC4)ccc(c23)C1=O: “molar extinction coefficient” 6000 M⁻¹ cm⁻¹ (CHCl3).
CC(C)[C@H](NC(=O)[C@H](Cc1c[nH]c2ccccc12)NC(=O)[C@H](CCCNC(=N)N)NC(=O)[C@H](CCCNC(=N)N)NC(=O)[C@@H](NC(=O)[C@@H](NC(=O)[C@H](CCCNC(=N)N)NC(=O)[C@@H](NC(=O)[C@@H](NC(=O)[C@H](CCCNC(=N)N)NC(=O)[C@H](CCCNC(=N)N)NC(=O)[C@@H](NC(=O)[C@H](Cc1c[nH]c2ccccc12)NC(=O)[C@H](CCCNC(=N)N)NC(=O)[C@H](CCCNC(=N)N)NC(=O)[C@@H](NC(=O)[C@H](CCCNC(=N)N)NC(=O)[C@H](CCCNC(=N)N)NC(=O)[C@@H](NC(=O)[C@H](Cc1c[nH]c2ccccc12)NC(=O)[C@H](CCCNC(=N)N)NC(=O)[C@@H](N)CCCNC(=N)N)C(C)C)C(C)C)C(C)C)C(C)C)C(C)C)C(C)C)C(C)C)C(=O)N[C@@H](CCCNC(=N)N)C(=O)N[C@@H](CCCNC(=N)N)C(=O)O has a glucose excretion of 188 µg/day/g body weight (CD1 mouse, urine; intravenous, 15 mg/kg, 16 h, [14C]-labelled compound).
CCC(CC)CNC(=N)NC(=N)NCCCCCCNC(=N)NC(=N)NCC(CC)CC has a hepatocyte CLint of 9.13 µL/min/10⁶ cells (metabolic stability; dog, hepatocytes; 1 µM).
The fluorescence lifetime of CCCCN1C(=O)c2cccc3c(NCCCCN4CCOCC4)ccc(c23)C1=O is reported as 10 ns (dioxane).
CN(O)C(=O)CCC(=O)NCCCN(CCCCN(CCCNC(=O)CCC(=O)N(C)O)C(=O)CCC(=O)N(C)O)C(=O)CCC(=O)N(C)O.[89Zr] gave an intact complex of 83.9 ± 1.6% (radio-TLC; aqueous buffer; 1 d, pH 5, 37 °C, 89Zr-labelled complex, with: DTPA 1000-fold excess).
The recovery of Nc1nc(-c2ccccc2)nc2[nH]nc(Nc3ccc(F)cc3)c12 is reported as 68% (plasma; time not given, plasma protein binding).
COc1ccc2c(c1)CCn1c[n+]3c(c1-2)-c1ccc(OC)cc1CC3 gave a Lymphocytes of 8.72 ± 12.4% (female NSG mice, blood; 6 mg/kg, day 14, 5 days per week).
C=CC(=O)Nc1cc(Nc2nccc(-c3c[nH]c4ccccc34)n2)c(OC)cc1N(C)CCN(C)C has a recovery of 96.2% (storage stability; human dried blood spots; 5 h, -80 °C, high QC level).
The SUV of O=C(Nc1cnccc1-c1ccc([18F])cc1)c1ccnc(NC(=O)C2CC2)c1 is reported as 31.7 (ex vivo gamma counting; GSK-3β transgenic mice, late-stage, urine; intravenous, 120 min, mean, no P-gp inhibitor).
COc1cccc(OC)c1-c1cc(C(=O)NC2(C(=O)O)C3CC4CC(C3)CC2C4)nn1-c1ccc(C(=O)N(C)CCCN(C)C(=O)[C@H](CCCCNC(=O)[C@H](CC(C)C)NC(=O)C2OC2C(=O)O)NC(=O)CN2CCN(CC(=O)[O-])CCN(CC(=O)[O-])CCN(CC(=O)[O-])CC2)cc1C(C)C.[177Lu+3] (mixture of isomers) gave a tumour-to-brain ratio of 47.4 (mouse, HT-29 xenograft; 24 h post injection, biodistribution; reference: tumour over brain uptake).
The plasma concentration of C=CC(=O)N1CCCC(n2c(=O)c3ncccc3n(Cc3ccc(Oc4ccccc4)cc3)c2=O)C1 (centres unmarked) is reported as 19600 ng/mL (BALB/c mice, male, plasma; oral, 200 mg/kg, 1 h).
With Cc1ccc(OCC(=O)N(Cc2cccs2)c2ccn[nH]2)cc1 the remaining compound was 1.3 (rat plasma; 750 ng/mL, 0.5 h, 37 °C, unit not given; reference: time zero).
C=C[C@]1(C)C[C@@H](OC(=O)CSc2ccc(NC(=O)c3ccco3)cc2)[C@]2(C)[C@H](C)CC[C@]3(CCC(=O)[C@H]32)[C@@H](C)[C@@H]1O gave a Tmax of 0.39 h (M. gallisepticum-infected chickens, plasma; intramuscular, 40 mg/kg single dose).

A few entries again:
C=CC(=O)Nc1cc(Nc2nccc(-c3c[nH]c4ccccc34)n2)c(OC)cc1N(C)CCN(C)C has a recovery of 96.2% (storage stability; human dried blood spots; 5 h, -80 °C, high QC level).
The SUV of O=C(Nc1cnccc1-c1ccc([18F])cc1)c1ccnc(NC(=O)C2CC2)c1 is reported as 31.7 (ex vivo gamma counting; GSK-3β transgenic mice, late-stage, urine; intravenous, 120 min, mean, no P-gp inhibitor).
COc1cccc(OC)c1-c1cc(C(=O)NC2(C(=O)O)C3CC4CC(C3)CC2C4)nn1-c1ccc(C(=O)N(C)CCCN(C)C(=O)[C@H](CCCCNC(=O)[C@H](CC(C)C)NC(=O)C2OC2C(=O)O)NC(=O)CN2CCN(CC(=O)[O-])CCN(CC(=O)[O-])CCN(CC(=O)[O-])CC2)cc1C(C)C.[177Lu+3] (mixture of isomers) gave a tumour-to-brain ratio of 47.4 (mouse, HT-29 xenograft; 24 h post injection, biodistribution; reference: tumour over brain uptake).
The plasma concentration of C=CC(=O)N1CCCC(n2c(=O)c3ncccc3n(Cc3ccc(Oc4ccccc4)cc3)c2=O)C1 (centres unmarked) is reported as 19600 ng/mL (BALB/c mice, male, plasma; oral, 200 mg/kg, 1 h).
With Cc1ccc(OCC(=O)N(Cc2cccs2)c2ccn[nH]2)cc1 the remaining compound was 1.3 (rat plasma; 750 ng/mL, 0.5 h, 37 °C, unit not given; reference: time zero).
